# Published values from different studies.
# Each line is one published result; not all experiments were run side by side. Numbers after ± are the reported error.
SMILES,organism,assay,test system,setting,IC50
O=[N+]([O-])c1ccc(/C=N/N=C/c2ccc(F)cc2)s1,Trypanosoma evansi,"parasite growth, CellTiter-Glo",Tansui bloodstream form,72 h,670 ± 20 nM
CCOC(=O)C(CC)NC(=O)CN1C(=O)S/C(=C\c2ccc(C)cc2)C1=O (stereo not shown),Trypanosoma brucei gambiense,cell viability,IL1922,72 h,> 59000 nM
C#CCN1CCC23C(=C(C(=O)OC)CC(C(=O)OC)C12)Nc1ccccc13 (stereo not shown),Hepatitis B virus,"viral replication, inhibitor, ELISA",HePAD38,,4980 nM
O=[N+]([O-])c1ccc(/C=N/N=C/c2ccc(Br)cc2)s1,Trypanosoma brucei gambiense,"parasite growth, CellTiter-Glo",IL1922 bloodstream form,72 h,1010 ± 250 nM
C#CCN1CCc2c([nH]c3ccccc23)C(=C)C1=O,Hepatitis B virus,"viral replication, inhibitor, ELISA",HePAD38,,3160 nM
CC(C)(C)OC(=O)N1CCC(C(=O)N[C@@H](Cc2ccc3ccccc3c2)C(=O)O)(c2ccc3ccccc3c2)CC1,Human immunodeficiency virus 1,"viral replication, inhibitor",,,57700 nM
COc1ccc(/C=N/N=C/c2ccc([N+](=O)[O-])s2)cc1,Trypanosoma brucei gambiense,"parasite growth, CellTiter-Glo",IL1922 bloodstream form,72 h,1290 ± 200 nM
N[C@H]1C[C@@H]1c1ccc(-c2cccc(O)c2)cc1,herpes simplex virus 1,"viral IE gene expression, qRT-PCR",HeLa,"4 h pretreatment, infection 2 h",~10000 nM
O=C(CCNC(=O)c1ccsc1)Nc1cccc(Oc2ccc(Cl)cc2)c1,Hepatitis B virus,"viral replication, inhibitor, qPCR",HepG2.2.15.7,,900 nM
CCOC(=O)CNC(=O)CN1C(=O)S/C(=C\c2ccc(C)cc2)C1=O,Trypanosoma brucei gambiense,cell viability,IL1922,72 h,> 63000 nM
Cc1cc(N2CC[C@@](C#N)(C3(C)CC3)C2=O)cc(C(=O)NCc2cc(F)cc(-c3cnn(C)c3)c2)n1,Plasmodium vivax,"parasite growth, ex vivo drug susceptibility",Brazilian clinical field isolates,,15 nM
O=[N+]([O-])c1ccc(/C=N/N=C/c2ccc(Cl)cc2)s1,Trypanosoma brucei gambiense,"parasite growth, CellTiter-Glo",IL1922 bloodstream form,72 h,1040 ± 230 nM
CCN(CC)CC#CCNc1ccnc2cc(Cl)ccc12,Plasmodium falciparum,parasite growth,3D7,blood stage,53 nM
CCOC(=O)C(CC)NC(=O)CN1C(=O)S/C(=C\c2ccc(OC)cc2)C1=O (stereo not shown),Trypanosoma brucei gambiense,cell viability,IL1922,72 h,> 58000 nM
CN(C(=O)c1ccn2ncc(-c3ccc(C(N)=O)cc3)c2c1)c1ccc(C#N)cn1,Cryptosporidium parvum,"parasite growth, imaging",HCT-8,intracellular,63 nM
CCOC(=O)C(C)NC(=O)CN1C(=O)S/C(=C\c2ccc(F)cc2)C1=O (stereo not shown),Trypanosoma brucei gambiense,cell viability,IL1922,72 h,> 64000 nM
O=[N+]([O-])c1ccc(/C=N/N=C/c2ccc(F)cc2)o1,Trypanosoma evansi,"parasite growth, CellTiter-Glo",Tansui bloodstream form,72 h,2660 ± 1020 nM
CCOC(=O)C(C)NC(=O)CN1C(=O)N/C(=C\c2ccc(C)cc2)C1=O (stereo not shown),Trypanosoma brucei gambiense,cell viability,IL1922,72 h,> 57000 nM
O=[N+]([O-])c1ccc(/C=N/N=C/c2ccc(O)cc2)o1,Trypanosoma brucei gambiense,"parasite growth, CellTiter-Glo",IL1922 bloodstream form,72 h,5470 ± 230 nM

# Some of these lines once more:
SMILES,organism,assay,test system,setting,IC50
CCN(CC)CC#CCNc1ccnc2cc(Cl)ccc12,Plasmodium falciparum,parasite growth,3D7,blood stage,53 nM
C#CCN1CCC23C(=C(C(=O)OC)CC(C(=O)OC)C12)Nc1ccccc13 (stereo not shown),Hepatitis B virus,"viral replication, inhibitor, ELISA",HePAD38,,4980 nM
O=[N+]([O-])c1ccc(/C=N/N=C/c2ccc(O)cc2)o1,Trypanosoma brucei gambiense,"parasite growth, CellTiter-Glo",IL1922 bloodstream form,72 h,5470 ± 230 nM
